Published values of several laboratories.
Numbered parts are unrelated; each lists some results of a single study.

Study 1
Target: Interferon regulatory factor 5, full length, phosphomimetic (IRF5, Homo sapiens, UniProt Q13568-2, residues 1-514, K96S/S451D/S453D/S456D/S462D)
Technique: protein-binding microarray
Form: double-stranded DNA, one strand shown
Sample: in vitro
Concentration: 250 nM
Notes: 60-bp whole probe
With: salmon DNA 0.4 mg/ml
Baseline: random background probes
Reading: higher = stronger binding
All sequences stand within: GCCTAGCAC … GTCTTGATTCGCTTGACGCTGCTG
For `TTACATATCAGTCTCGATTAGTGCTAG`, the log fluorescence was 2.43 z-score.
With `TTAGGTACCGGGTTTCGGTTAGTGCTA` the log fluorescence was 7.44 z-score.
With `GACGATATCAGTATCGACACGTGCTAG` the log fluorescence was 4.33 z-score.
`GACCGTATCGACTTTCGGGACGTGCTA` gave a log fluorescence of 6.77 z-score.
With `TTAGGTATCGTGACTGGGTTAGTGCTA` the log fluorescence was 0.461 z-score.
`AACACTCTTCTTTTGCTAATGTGCTAG` gave a log fluorescence of 0.999 z-score.
For `TTAGGTTTCGGGCTTCGGTTAGTGCTA`, the log fluorescence was 6.11 z-score.
With `AACTCTTTGCAGATAAATACGTGCTAG` the log fluorescence was 0.278 z-score.
For `TTGTTTCTAATATTCTGCTTGTGCTAG`, the log fluorescence was 1.8 z-score.
For `TTAGGTTTCCCTCTCCTTTAGTGCTAG`, the log fluorescence was 1.04 z-score.
With `TCACGGGCTTCTTTTTCTACTGTGCTA` the log fluorescence was 0.924 z-score.
`TCAACTCTTCTTTTTTTACTGTGCTAG` has a log fluorescence of 0.802 z-score.
With `GACGGTTTCGGTCTCGGGATGTGCTAG` the log fluorescence was 9.67 z-score.
`TCCAGGGCGGTGGGTGGCCCGTGCTAG` has a log fluorescence of -0.955 z-score.
`TCAAAGATTGCCGTTTCCACTGTGCTA` gave a log fluorescence of 0.366 z-score.
`CCCAGGACCCTGGAACTGGCGTGCTAG` has a log fluorescence of -0.659 z-score.
The log fluorescence of `CCAGATTTCCCCACCATCTAGTGCTAG` is reported as 0.0229 z-score.
The log fluorescence of `GATGGACTGGACTATCGGGACGTGCTA` is reported as 0.819 z-score.

Study 2
Target: RNA binding protein fox-1 homolog 2, RRM domain, GST-SBP tag (RBFOX2, Homo sapiens, UniProt O43251-10, residues 100-194)
Technique: RNA Bind-n-Seq
Form: RNA
Sample: in vitro
Concentration: 365 nM
Notes: natural RNA segment, single round, ends assumed
Baseline: no-protein control
Reading: higher = stronger binding
All sequences stand within: GGGAGUUCUACAGUCCGACGAUC … UGGAAUUCUCGGGUGCCAA
Residues (chain): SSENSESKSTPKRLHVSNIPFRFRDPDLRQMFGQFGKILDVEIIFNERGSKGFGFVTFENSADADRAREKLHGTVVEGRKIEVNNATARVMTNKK
`CCGGCCCCCUCAUCACAAUCAGCUUUGAAGUCUGUAUUUUUUUAUAAUAAAAUGGACAAACUGUUAAGCGUGGGCCUCUCUGUUACAGGUGUGCUAGAUUUCCGACAGAG` — result for “RBNS enrichment (R)”: 0.396.
`AUCCCCGGCCCCGGCUGUGACUGCCCUGUUUCACCCCUGCUGUGUCCCAUCCCCCGUCUGUCCACUAACUGUACCGCACCGGCCAUUAAAAGAUGAAGGCAGACCGCUGC`: “RBNS enrichment (R)” 0.626.
For `CAGUCACCCCACAAGCCUACCAUCACGUCCCCUUCAGAGCUCACCUUGUAUCCUUAAUCCUCAGUAACAGAAUUAGUCACACAGGGGGGAACUGCCAGCAGGGUUGCUUA`, “RBNS enrichment (R)” read 0.357.
`CGGAUGGCAGAUACUGGCCUUUGAAACUCUGUUGAUUCAUCUCUUCUAAUCGGUCCCCAAGGAGAAAGAACAUAAACAAAGAGUGAGGUCUUCCCUCCCACUGAACACUA`: “RBNS enrichment (R)” 0.496.
`CAUAUACUGUACAUCAAGUAUAGGAAAUGUGCACUGAGUAUACUAAAAGUAUAUGCAGGAUUAAUUUUACAUAAAGGCCUCUUCUGUAACAUUUCUCUAUUUUUUGAAAU` — result for “RBNS enrichment (R)”: 0.485.
`UGUUCCCUUUGUGUGUACGUUUCUCACCCCUUAACCACUUCAGUGUCAAAAAAGUUCCCAUUGUGUCUUCUGAAAGUGAAGUCCCAUAAGGAAGUUGGGAGAGAAUGUGC`: “RBNS enrichment (R)” 0.62.
For `AUUAAAUGUUUUAGUAUUUUGAACUGAAAUGGACACACAAACACACACACGCACACACAGACCCACAGCUUUGAAUGAUCAUGUUGUGGCUGAGCAGCCGCUUUUUAGAC`, “RBNS enrichment (R)” read 1.67.
`AUGCCGUCAAGGAAGGAAUUCAGUUACAGGGCAUCUGUAACUUAAAUAUUGUAAGAAUAACUCAUAUGGAAGUUCAAGCUAUUUUUAUACUAUAAUAGAGUUAUUUAAUU` — result for “RBNS enrichment (R)”: 0.494.

Study 3
Target: Histone acetyltransferase KAT6A, both winged helices, GST fusion (KAT6A, Homo sapiens, UniProt Q92794, residues 1-181)
Technique: protein binding microarray
Form: double-stranded DNA, one strand shown
Sample: in vitro
Concentration: not given
Notes: 8-mer, flanks averaged, mean of 2 arrays, mostly near background
Baseline: not given
Reading: higher = stronger binding
Residues (chain): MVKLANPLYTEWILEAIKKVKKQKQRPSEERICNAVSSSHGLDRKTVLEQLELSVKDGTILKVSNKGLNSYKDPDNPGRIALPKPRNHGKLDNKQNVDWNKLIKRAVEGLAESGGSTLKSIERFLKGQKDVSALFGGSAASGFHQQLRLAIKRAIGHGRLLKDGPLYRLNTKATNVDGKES
`GTAGATGA` gave an E-score of 0.00061.
For `CCTTATCC`, the E-score was -0.0859.
`CTCATTCA` gave an E-score of -0.204.
The E-score of `ATTGCTCA` is reported as -0.0628.
With `CATTTGCG` the E-score was 0.119.
`GGTGGGAC` has an E-score of -0.185.
`AGGTTCGG` has an E-score of -0.00199.
With `AACGCGAA` the E-score was 0.0782.
The E-score of `CTGTTGTA` is reported as 0.136.
`AGCGAACT` gave an E-score of -0.198.
`ATCACGGC` has an E-score of 0.314.
With `CGTGCGAA` the E-score was 0.119.
`GAGTTATC` has an E-score of -0.0414.
With `CACTGCCC` the E-score was -0.0411.
The E-score of `GAAGACTC` is reported as -0.0953.
With `TGAGAGCA` the E-score was -0.217.
`GCCGTGCA` has an E-score of 0.221.
`AGTGGAGA` gave an E-score of -0.168.
With `ATCAGCAA` the E-score was -0.128.
For `CGGTTGGA`, the E-score was 0.0347.
The E-score of `ATTTGGGG` is reported as -0.18.
`ACCCTTAG` gave an E-score of -0.271.
`AGAAGTAA` has an E-score of -0.104.
For `ATTTTCTG`, the E-score was -0.164.
`ACCGTCAA` has an E-score of 0.212.

Study 4
Target: Sal-like protein 4, full length isoform B (SALL4, Homo sapiens, UniProt Q9UJQ4-2, residues 1-616)
Technique: universal PBM
Form: double-stranded DNA, one strand shown
Sample: in vitro
Concentration: not given
Notes: 8-mer, flanks averaged, mean of replicates
Reading: higher = stronger binding
Target sequence (chain): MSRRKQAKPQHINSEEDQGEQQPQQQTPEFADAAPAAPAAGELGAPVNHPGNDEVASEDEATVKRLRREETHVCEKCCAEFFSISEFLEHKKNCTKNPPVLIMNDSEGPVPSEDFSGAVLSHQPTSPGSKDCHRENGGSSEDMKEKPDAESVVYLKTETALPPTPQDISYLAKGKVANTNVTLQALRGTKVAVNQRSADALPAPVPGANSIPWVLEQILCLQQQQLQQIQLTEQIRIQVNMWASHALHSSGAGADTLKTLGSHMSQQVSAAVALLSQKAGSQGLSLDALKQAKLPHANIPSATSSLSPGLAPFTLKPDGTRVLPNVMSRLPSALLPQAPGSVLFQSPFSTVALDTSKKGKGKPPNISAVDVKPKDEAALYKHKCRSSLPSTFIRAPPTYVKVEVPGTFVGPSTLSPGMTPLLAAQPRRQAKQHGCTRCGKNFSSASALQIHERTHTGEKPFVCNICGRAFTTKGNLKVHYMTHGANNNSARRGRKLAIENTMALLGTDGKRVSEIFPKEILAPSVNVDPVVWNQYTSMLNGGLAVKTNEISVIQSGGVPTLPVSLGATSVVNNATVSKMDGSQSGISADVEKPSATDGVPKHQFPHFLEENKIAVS
`CAAGTGAA` has an E-score of 0.17.
`CATTGACG` gave an E-score of 0.0285.
With `CATGGGGG` the E-score was -0.264.
With `CGCAGACC` the E-score was -0.264.
The E-score of `AGGTAAGG` is reported as 0.0249.
With `CGAGGGCG` the E-score was -0.208.
With `GGTAGGTA` the E-score was -0.0629.
For `ATAGTTCC`, the E-score was 0.0545.
`GCGGAGCA` has an E-score of -0.199.
`GTAACCGA` gave an E-score of -0.0742.
`ACGACCCT` has an E-score of -0.166.
`ATCCCTAA` gave an E-score of -0.0553.
`AAAGCTGC` has an E-score of -0.165.
`AATGTCCG` has an E-score of -0.0405.
The E-score of `GAGCACGC` is reported as -0.18.
With `CGACCTAG` the E-score was -0.102.
`ATTAAATG` gave an E-score of 0.247.
`AAGACGTA` has an E-score of 0.146.
`ACTTCCAT` gave an E-score of -0.0192.
With `ACACGAAA` the E-score was 0.064.
With `ACAGGGAC` the E-score was -0.187.
The E-score of `ACAGCGGT` is reported as -0.138.
The E-score of `AGAGCAGC` is reported as -0.0887.
With `AAAATTGG` the E-score was 0.178.
`CGTGAACC` has an E-score of -0.183.
